Published values pooled from the literature.
Compare with care: the assays were run in different laboratories.
Target: Cyclin-dependent kinase-like 5 (CDKL5, Homo sapiens, UniProt O76039)

COc1c(Cl)cccc1Nc1c(-c2ccncc2C#C[C@@]2(C)CCCN2C(=O)/C=C/CN(C)C)[nH]c2c1C(=O)NCC2
remaining binding (binding, competition with immobilised ligand; 3 µM): 84%

COc1cc(Nc2nc(C)cc(-c3cnn4nc(OC)ccc34)n2)cc(C(F)(F)F)c1
remaining activity (inhibitor; 1 µM; baseline: control): 82%

Nc1ncc2c(n1)-c1c([nH]c3ccc(C4=CCOCC4)cc13)CCC2
remaining binding (binding, competition with immobilised ligand; 1 µM): 85%

CCN1CCN(Cc2ccc(C(=O)Nc3ccc(C)c(NCc4cnc5[nH]ccc5c4OC)c3)cc2C(F)(F)F)CC1
remaining binding (binding, competition with immobilised ligand; 1 µM): 58%

CC(C)=CC1OC(C)(C)C2C=C3C(=O)C(Cl)=CC(O)C3C3C(O)C4OC4C(=O)C132 (stereo not drawn)
remaining binding (cell-free assay, competition with immobilised ligand; 10 µM): 68%

CN1CCN(Cc2ccc(-c3ccc(CO[C@H]4CCC[C@@H]4NC(=O)c4cc(-c5cnn(C)c5)cnc4N)cc3)cc2)CC1
inhibition (enzyme activity, inhibitor; 0.1 µM): 9%

CNC1C[S+]2CC[S+]3CC[S+](C1)[Ru-4]321([N]=C=S)[n]2c3ccc(OC)cc3c3c4c(c5cc(F)c[n+]1c5c32)C(=O)NC4=O (stereo not drawn)
remaining binding (KinomeScan; 0.1 µM; baseline: untreated): 98%

Cc1ccc(-c2c(/C=C(\C#N)C(=O)NC(C)C)n(CCCO)c3ncnc(N)c23)cc1
remaining binding (cell-free assay, competition with immobilised ligand; 1 µM): 100%

CNC(=O)C1CCN(c2cc(C)c(F)cc2NC(=O)c2ccc(-c3cc(O)ccc3C)c(C)c2)CC1
remaining binding (binding, competition with immobilised ligand; 1 µM): 70%

CCn1cc(C(=O)O)c(=O)c2c(N)c(F)c(NC3CCCCC3)cc21
inhibition (kinase activity; 0.1 µM, together with: ATP at Km): 28.7%

C=CC(=O)N1Cc2nc(-c3cc(-c4cc(Cl)cnc4Cl)c(F)cc3F)n(-c3ccncn3)c2C1
inhibition (cell-free assay; 1 µM): 3.2%

Cc1cnc2nc1Nc1cccc(c1)COC/C=C/COCc1cc(ccc1OCCN1CCOCC1)N2
remaining binding (binding; 0.1 µM): 91%

C=CC(=O)N1CCc2ccc(-n3c(=O)ccc4cnc5ccc(-c6cnn(C)c6)cc5c43)cc21
remaining binding (KINOMEscan; 1 µM; baseline: DMSO control): 100%

C=CC(=O)N1CCCC(n2c(=O)c3ncccc3n(Cc3ccc(Oc4ccccc4)cc3)c2=O)C1 (stereo not drawn)
remaining binding (cell-free assay, competition with immobilised ligand; 1 µM): 61%

COc1cc(Nc2nccc(-c3cnn4nc(OC)ccc34)n2)cc(C(F)(F)F)c1
remaining binding (binding, competition with immobilised ligand; 1 µM): 100%

Repeated from above:
CCN1CCN(Cc2ccc(C(=O)Nc3ccc(C)c(NCc4cnc5[nH]ccc5c4OC)c3)cc2C(F)(F)F)CC1
remaining binding (binding, competition with immobilised ligand; 1 µM): 58%
